Assay results from different studies.
Lines come from different studies, so protocols differ. Values joined by “and” are separate records of one study, mostly repeats; a detail may differ. In brackets after ≈: the same amount, converted by molar mass.
Genome polyprotein NS3 helicase domain: Genome polyprotein, NS3 helicase domain (Hepatitis C virus genotype 1b, UniProt Q9WMX2)
Chain of UniProt P06493 (whole entry, looked up): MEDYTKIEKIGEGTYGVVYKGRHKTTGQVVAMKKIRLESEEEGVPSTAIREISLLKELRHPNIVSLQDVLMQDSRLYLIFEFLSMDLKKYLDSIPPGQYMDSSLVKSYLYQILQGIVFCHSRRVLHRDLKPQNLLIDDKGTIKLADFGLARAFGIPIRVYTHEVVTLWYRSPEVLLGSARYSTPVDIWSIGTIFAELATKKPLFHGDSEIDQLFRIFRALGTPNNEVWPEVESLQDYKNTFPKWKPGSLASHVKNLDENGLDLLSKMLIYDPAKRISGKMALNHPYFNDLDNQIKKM
Chain of UniProt Q9NYY3 (whole entry, looked up): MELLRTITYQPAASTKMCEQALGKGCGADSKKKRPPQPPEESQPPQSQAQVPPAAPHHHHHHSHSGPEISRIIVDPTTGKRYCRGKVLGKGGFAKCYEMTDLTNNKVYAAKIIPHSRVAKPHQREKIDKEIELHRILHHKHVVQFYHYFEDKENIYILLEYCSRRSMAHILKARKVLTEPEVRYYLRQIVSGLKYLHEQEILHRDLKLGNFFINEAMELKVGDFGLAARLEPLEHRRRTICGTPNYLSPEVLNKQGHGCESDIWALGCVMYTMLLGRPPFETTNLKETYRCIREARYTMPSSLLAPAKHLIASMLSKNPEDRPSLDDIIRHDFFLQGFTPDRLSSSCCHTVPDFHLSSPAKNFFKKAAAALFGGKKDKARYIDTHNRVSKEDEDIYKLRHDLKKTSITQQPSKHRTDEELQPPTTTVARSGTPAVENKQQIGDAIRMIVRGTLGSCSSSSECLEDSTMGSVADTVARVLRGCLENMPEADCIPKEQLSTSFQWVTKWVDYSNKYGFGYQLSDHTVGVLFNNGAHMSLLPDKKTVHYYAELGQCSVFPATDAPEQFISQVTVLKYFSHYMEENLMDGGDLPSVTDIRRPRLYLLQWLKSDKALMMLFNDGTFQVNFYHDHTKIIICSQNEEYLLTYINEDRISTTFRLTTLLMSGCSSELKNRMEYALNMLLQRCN
Chain of UniProt P35354 (whole entry, looked up): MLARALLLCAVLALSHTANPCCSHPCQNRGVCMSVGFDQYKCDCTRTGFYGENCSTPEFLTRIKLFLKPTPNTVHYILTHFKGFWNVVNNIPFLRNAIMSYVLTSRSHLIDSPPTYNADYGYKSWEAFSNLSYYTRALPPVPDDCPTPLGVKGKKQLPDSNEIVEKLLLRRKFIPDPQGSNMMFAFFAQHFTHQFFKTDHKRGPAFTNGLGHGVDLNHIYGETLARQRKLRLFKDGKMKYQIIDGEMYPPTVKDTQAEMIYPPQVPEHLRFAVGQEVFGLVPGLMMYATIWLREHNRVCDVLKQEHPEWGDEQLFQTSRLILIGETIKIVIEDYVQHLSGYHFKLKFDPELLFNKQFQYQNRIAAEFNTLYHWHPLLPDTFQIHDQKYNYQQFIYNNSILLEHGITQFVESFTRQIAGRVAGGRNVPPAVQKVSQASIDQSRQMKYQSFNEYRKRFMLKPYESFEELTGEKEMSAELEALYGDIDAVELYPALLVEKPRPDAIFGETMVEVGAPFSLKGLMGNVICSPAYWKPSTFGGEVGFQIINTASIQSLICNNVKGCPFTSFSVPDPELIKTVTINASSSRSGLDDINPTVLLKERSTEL
Chain of UniProt P50406 (whole entry, looked up): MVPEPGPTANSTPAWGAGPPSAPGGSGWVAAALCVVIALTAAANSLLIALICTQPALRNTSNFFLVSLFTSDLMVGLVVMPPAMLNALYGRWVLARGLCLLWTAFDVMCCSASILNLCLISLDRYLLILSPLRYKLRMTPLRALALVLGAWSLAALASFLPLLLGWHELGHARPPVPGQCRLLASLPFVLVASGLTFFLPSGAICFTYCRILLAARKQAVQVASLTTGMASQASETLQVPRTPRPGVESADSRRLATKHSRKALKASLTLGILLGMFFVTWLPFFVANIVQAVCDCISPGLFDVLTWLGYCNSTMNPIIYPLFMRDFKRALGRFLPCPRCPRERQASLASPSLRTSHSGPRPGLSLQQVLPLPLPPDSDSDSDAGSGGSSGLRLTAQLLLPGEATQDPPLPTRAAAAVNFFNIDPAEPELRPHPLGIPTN
Chain of UniProt P15735 (whole entry, looked up): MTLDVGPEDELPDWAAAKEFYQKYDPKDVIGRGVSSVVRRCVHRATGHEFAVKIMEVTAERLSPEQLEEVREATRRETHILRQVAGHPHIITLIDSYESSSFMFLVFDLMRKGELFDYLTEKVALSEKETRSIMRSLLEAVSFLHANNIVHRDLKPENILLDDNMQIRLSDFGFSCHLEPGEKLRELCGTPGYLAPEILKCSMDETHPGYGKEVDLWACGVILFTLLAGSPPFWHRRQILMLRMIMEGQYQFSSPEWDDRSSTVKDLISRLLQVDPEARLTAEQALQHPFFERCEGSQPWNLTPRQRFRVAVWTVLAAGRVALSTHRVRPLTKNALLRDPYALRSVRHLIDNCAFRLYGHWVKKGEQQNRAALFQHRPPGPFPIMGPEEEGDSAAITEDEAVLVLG
Chain of UniProt P28223 (whole entry, looked up): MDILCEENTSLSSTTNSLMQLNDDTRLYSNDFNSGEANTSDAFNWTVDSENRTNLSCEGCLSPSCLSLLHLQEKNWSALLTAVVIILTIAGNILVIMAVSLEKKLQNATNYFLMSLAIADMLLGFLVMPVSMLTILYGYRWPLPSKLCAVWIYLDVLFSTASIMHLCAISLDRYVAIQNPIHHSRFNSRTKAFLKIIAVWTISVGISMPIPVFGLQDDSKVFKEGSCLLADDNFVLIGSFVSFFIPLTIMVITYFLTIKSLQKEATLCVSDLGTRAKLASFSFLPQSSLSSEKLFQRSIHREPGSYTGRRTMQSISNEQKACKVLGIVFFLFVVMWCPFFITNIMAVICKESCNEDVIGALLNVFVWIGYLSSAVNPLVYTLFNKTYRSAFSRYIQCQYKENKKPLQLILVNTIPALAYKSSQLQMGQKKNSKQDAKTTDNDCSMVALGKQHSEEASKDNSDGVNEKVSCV
Chain of UniProt O94768 (whole entry, looked up): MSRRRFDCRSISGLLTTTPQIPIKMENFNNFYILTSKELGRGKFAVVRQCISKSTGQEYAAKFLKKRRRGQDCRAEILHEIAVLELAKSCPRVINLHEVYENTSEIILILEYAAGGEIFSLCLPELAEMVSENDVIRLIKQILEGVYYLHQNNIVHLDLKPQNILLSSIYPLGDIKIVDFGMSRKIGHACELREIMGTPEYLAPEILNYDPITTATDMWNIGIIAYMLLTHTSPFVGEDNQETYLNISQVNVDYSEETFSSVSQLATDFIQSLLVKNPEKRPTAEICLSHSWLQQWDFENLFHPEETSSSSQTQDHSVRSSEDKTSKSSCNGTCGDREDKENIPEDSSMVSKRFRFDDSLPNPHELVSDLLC
Chain of UniProt P18089 (whole entry, looked up): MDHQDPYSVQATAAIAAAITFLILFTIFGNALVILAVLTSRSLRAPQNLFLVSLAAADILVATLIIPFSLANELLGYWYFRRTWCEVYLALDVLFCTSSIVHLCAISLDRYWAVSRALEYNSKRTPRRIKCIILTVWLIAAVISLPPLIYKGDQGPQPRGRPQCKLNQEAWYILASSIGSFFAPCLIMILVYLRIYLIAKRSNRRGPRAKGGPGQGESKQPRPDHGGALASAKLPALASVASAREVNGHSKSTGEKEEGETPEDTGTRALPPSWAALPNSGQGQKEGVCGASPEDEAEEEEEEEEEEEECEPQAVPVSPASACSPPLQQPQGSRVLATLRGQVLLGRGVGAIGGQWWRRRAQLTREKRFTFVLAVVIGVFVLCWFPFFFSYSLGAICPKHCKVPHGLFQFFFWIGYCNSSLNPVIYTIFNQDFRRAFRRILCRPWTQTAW
Chain of UniProt P14867 (whole entry, looked up): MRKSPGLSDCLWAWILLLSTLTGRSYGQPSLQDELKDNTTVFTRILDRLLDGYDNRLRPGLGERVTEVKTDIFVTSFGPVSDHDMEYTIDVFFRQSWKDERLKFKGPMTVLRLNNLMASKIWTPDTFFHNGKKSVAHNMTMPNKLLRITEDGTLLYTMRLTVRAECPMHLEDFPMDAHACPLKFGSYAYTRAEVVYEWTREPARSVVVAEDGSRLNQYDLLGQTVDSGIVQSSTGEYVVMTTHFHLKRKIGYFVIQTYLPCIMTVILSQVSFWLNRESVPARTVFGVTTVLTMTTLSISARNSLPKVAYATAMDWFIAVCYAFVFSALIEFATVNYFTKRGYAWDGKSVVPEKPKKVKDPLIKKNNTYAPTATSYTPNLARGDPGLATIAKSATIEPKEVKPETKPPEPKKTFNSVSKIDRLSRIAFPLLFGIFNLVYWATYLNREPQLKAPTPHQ
Chain of UniProt Q96S44 (whole entry, looked up): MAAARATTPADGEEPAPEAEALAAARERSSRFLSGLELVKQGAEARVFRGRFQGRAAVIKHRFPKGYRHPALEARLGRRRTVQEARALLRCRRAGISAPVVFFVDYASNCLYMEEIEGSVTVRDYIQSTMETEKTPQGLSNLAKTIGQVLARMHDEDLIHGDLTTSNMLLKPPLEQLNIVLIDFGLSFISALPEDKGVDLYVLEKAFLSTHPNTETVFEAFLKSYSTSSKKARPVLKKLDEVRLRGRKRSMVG
Chain of UniProt P28472 (whole entry, looked up): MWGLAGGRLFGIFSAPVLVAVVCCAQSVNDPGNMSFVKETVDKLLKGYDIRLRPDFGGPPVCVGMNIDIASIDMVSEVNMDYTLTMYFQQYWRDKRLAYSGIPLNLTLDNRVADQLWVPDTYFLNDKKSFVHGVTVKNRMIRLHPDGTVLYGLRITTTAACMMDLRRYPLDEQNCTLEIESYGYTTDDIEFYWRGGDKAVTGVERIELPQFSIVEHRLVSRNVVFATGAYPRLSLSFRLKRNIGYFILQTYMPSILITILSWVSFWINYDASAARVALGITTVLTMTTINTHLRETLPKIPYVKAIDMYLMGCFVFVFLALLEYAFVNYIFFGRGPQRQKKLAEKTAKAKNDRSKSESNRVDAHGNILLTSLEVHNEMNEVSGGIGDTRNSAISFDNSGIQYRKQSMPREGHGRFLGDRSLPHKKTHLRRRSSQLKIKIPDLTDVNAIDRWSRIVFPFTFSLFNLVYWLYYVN

| SMILES | tested on | assay | test system | setting | scale | measurement | result |
| --- | --- | --- | --- | --- | --- | --- | --- |
| c1ccc(C(NCCNC(c2ccccc2)c2ccccc2)c2ccccc2)cc1 | steroid 5alpha-reductase (rat) | Eurofins selectivity panel | – | 10 µM | – | inhibition | 99% |
| CC(=O)NC[C@H]1[C@H](O)[C@H](O)[C@@H]2[C@H](O)C[C@@H](CO)N21 | Spodoptera litura β-N-acetylglucosaminidase | – | crude enzyme | 0.000784 µM, run 1, with: p-nitrophenyl GlcNAc | – | inhibition | 6.97% |
| FC(F)(F)c1cccc(Nc2nc(NCCOc3ccccc3)nc3[nH]cnc23)c1 | Cyclin-dependent kinase 1, with cyclin B (CDK1, Homo sapiens, UniProt P06493) | enzyme activity, inhibitor, Thermo Fisher kinase screening | – | 5 µM | – | inhibition | 10% and 2% |
| COc1c(CCC[P+](c2ccccc2)(c2ccccc2)c2ccccc2)cc2c(c1OC)OCO2.[I-] | Hs-578T | SRB | – | – | – | LC50 | > -4 log M |
| [2H]c1c([2H])c([C@]2([2H])CCCN2C(=O)C(C)(C)Oc2ccc3cn[nH]c3c2)c([2H])c([2H])c1C([2H])([2H])[2H] | STK17B (Homo sapiens, UniProt O94768) | KINOMEscan | – | 1 µM | reference: DMSO control | remaining binding | 65% |
| C[N+]1(C)C2CCC1CC(OC(=O)c1c[nH]c3ccccc13)C2.[I-] (stereo not drawn) | Genome polyprotein NS3 helicase domain | DNA binding, inhibitor | hepatitis C virus | 100 µM, with: Cy5-dT15 DNA | – | inhibition | 0% |
| C[C@@H](O)[C@@H](CO)NC(=O)[C@@H](CCCNC(=N)N)NC(=O)[C@@H]1CCCN1C(=O)[C@@H]1CSSC[C@H](NC(=O)[C@H](Cc2ccccc2)NC(=O)CN2CCN(CC(=O)O)CCN(CC(=O)O)CCN(CC(=O)O)CC2)C(=O)N[C@@H](Cc2ccc(O)cc2)C(=O)N[C@@H](Cc2ccccc2)C(=O)N[C@@H](CCC(N)=O)C(=O)N[C@@H](CC(N)=O)C(=O)N1 [gallium-68 labelled] | – | – | healthy Wistar rat, adrenals | intravenous, 8 MBq, 60 min, individual animals | – | tissue uptake | 0.11 %ID/g |
| Oc1ccc2c3c1O[C@H]1[C@@H](O)CC[C@@]4(O)[C@@H](C2)N(CC2CCC2)CC[C@]314 | Opsin-5 (OPN5, Homo sapiens, UniProt Q6U736) | β-arrestin recruitment, TANGO luminescence, measured: OPN5 | – | concentration not given | reference: basal luminescence | log2 fold change | 0.216 |
| CN1CCN(c2cc(-c3ccncc3)c(-c3ccc4ccccc4c3)nn2)CC1 | FFAR1 (Homo sapiens, UniProt O14842) | antagonist, FLIPR | – | 10 µM | – | inhibition | -4.5% |
| C#Cc1n[nH]c2c(-c3cn(C(C)c4ccccn4)c(=O)[nH]c3=O)cc(F)cc12 (stereo not drawn) | human FLT3 ITD mutant | kinase activity, inhibitor | – | 1 µM | – | inhibition | -17.3% |
| C[N+](C)(C)CCCCCCCCCC[N+](C)(C)C.[Br-].[Br-] | Genome polyprotein NS3 helicase domain | DNA binding, inhibitor | hepatitis C virus | 100 µM, with: Cy5-dT15 DNA | – | inhibition | 2% |
| CN(CCN1CCC(OC(=O)Nc2ccccc2-c2ccccc2)CC1)C(=O)c1ccc(CN2CCC(C(N)=O)CC2)cc1 | phenylethanolamine N-methyltransferase | enzyme activity | – | 1 µM | – | inhibition | 5% |
| COc1ccc2[nH]c3c(c2c1)CCNC3 | Genome polyprotein NS3 helicase domain | DNA binding, inhibitor | hepatitis C virus | 100 µM, with: Cy5-dT15 DNA | – | inhibition | 1% |
| O=C(N[C@H](CO)[C@H](O)c1ccc([N+](=O)[O-])cc1)C(Cl)Cl | Gag polyprotein, nucleocapsid protein p7 (gag, Human immunodeficiency virus type 1 group M subtype B, UniProt P04591) | NCp7-RNA binding, AlphaScreen | HIV-1 | 45 µM | – | inhibition | > 50% |
| C[C@H]1CN(c2n[nH]c3nc(N[C@H]4CC[C@H](NS(=O)(=O)CCC(F)(F)F)CC4)ncc23)CCO1 | TP53RK (Homo sapiens, UniProt Q96S44) | inhibitor, Kinobeads competition profiling | – | 0.16 µM | reference: vehicle | relative abundance | 0.95 |
| Cn1cccc1-c1cccnc1 | HTR6 (Homo sapiens, UniProt P50406) | binding | – | 50 µM | – | inhibition | 1.38% |
| CC[C@H](C)[C@H](NC(=O)[C@H](C)NC(=O)[C@H](CCCCN)NC(=O)[C@H](CC(C)C)NC(=O)[C@H](C)NC(=O)[C@@H](NC(=O)[C@H](Cc1c[nH]cn1)NC(=O)[C@H](CC(C)C)NC(=O)[C@@H](NC(=O)[C@@H](NC(=O)[C@H](CCCCN)NC(=O)[C@H](C)NC(=O)[C@H](C)NC(=O)[C@H](CO)NC(=O)[C@H](CCCCN)NC(=O)[C@H](Cc1ccccc1)NC(=O)[C@@H](NC(=O)[C@H](CCCCN)NC(=O)[C@H](CC(C)C)NC(=O)[C@H](Cc1ccccc1)NC(=O)[C@H](CO)NC(=O)[C@H](CCCCN)NC(=O)[C@H](Cc1c[nH]c2ccccc12)NC(=O)[C@H](CCCCN)NC(C)=O)[C@@H](C)O)[C@@H](C)O)C(C)C)[C@@H](C)O)C(=O)N[C@@H](CO)C(=O)N[C@@H](CO)C(N)=O | Klebsiella pneumoniae | – | ATCC 1705 | – | – | MIC90 | 16 µg/mL (≈ 5.45 µM) |
| CO[C@H]1C[C@@H]2CC[C@@H](C)[C@@](O)(O2)C(=O)C(=O)N2CCCC[C@H]2C(=O)O[C@H]([C@H](C)C[C@@H]2CC[C@@H](OC(=O)NCCOCCOCCOCCOCCOCCOCCOCCOCCC(=O)N3CCc4cc(Cn5nc(-c6ccc7oc(N)nc7c6)c6c(N)ncnc65)ccc4C3)[C@H](OC)C2)C[C@@H](O)[C@H](C)/C=C(\C)[C@@H](O)[C@@H](OC)C(=O)[C@H](C)C[C@H](C)/C=C/C=C/C=C/1C | – | phase 1 dose escalation, measured: nausea | advanced solid tumour patients | intravenous, 10 mg weekly, grade ≥3 | – | TRAE incidence | 0% |

| SMILES | tested on | assay | test system | setting | scale | measurement | result |
| --- | --- | --- | --- | --- | --- | --- | --- |
| CN(N=O)c1ccc(O)c(O)c1 | Genome polyprotein NS3 helicase domain | DNA binding, inhibitor | hepatitis C virus | 100 µM, with: Cy5-dT15 DNA | – | inhibition | 27% |
| CN(C(=O)n1cnc(-c2ccc[n+]([O-])c2)c1)C1CCCCC1 | GABA transporter, rat | binding | – | 10 µM, with: [3H]GABA | – | inhibition | -4% |
| O=c1ccc2ccccc2o1 | PTGS2 (Homo sapiens, UniProt P35354) | enzyme activity | – | 10 µM | – | inhibition | -5.04% |
| Cl.NC1C=CC=C(C(=O)O)C1 (stereo not drawn) | Genome polyprotein NS3 helicase domain | DNA binding, inhibitor | hepatitis C virus | 100 µM, with: Cy5-dT15 DNA | – | inhibition | 0% |
| CC[C@H](C)[C@H](NC(=O)[C@H](Cc1ccccc1)NC(=O)[C@H](CCC(=O)O)NC(=O)[C@H](CCCNC(=N)N)NC(=O)[C@H](C)NC(=O)[C@H](C)NC(=O)[C@H](CCC(N)=O)NC(=O)[C@H](CCC(=O)O)NC(=O)[C@H](CCC(=O)O)NC(=O)[C@H](CC(C)C)NC(=O)[C@H](Cc1ccc(O)cc1)NC(=O)[C@H](CO)NC(=O)[C@H](CO)NC(=O)[C@@H](NC(=O)[C@H](CC(=O)O)NC(=O)[C@H](CO)NC(=O)[C@@H](NC(=O)[C@H](Cc1ccccc1)NC(=O)[C@@H](NC(=O)CNC(=O)[C@H](CCC(=O)O)NC(=O)[C@H](C)NC(=O)CCc1c[nH]cn1)[C@@H](C)O)[C@@H](C)O)C(C)C)C(=O)N[C@@H](C)C(=O)N[C@@H](Cc1c[nH]c2ccccc12)C(=O)N[C@@H](CC(C)C)C(=O)N[C@H](C(=O)N[C@@H](CCCNC(=N)N)C(=O)NCC(=O)N[C@@H](CCCNC(=N)N)C(=O)N[C@@H](CCCCNC(=O)COCCOCCNC(=O)COCCOCCNC(=O)CC[C@H](NC(=O)CCCCCCCCCCCCCCCCC(=O)O)C(=O)O)C(=O)NCC(=O)NCC(=O)N[C@@H](CO)C(=O)N[C@@H](CCCCNc1c(NCCCCCN(O)C(=O)CCC(=O)NCCCCCN(O)C(=O)CCC(=O)NCCCCCN(O)C(C)=O)c(=O)c1=O)C(=O)O)C(C)C [zirconium-89 labelled] | – | – | rat, kidney | iv, 3 nmol/kg, 168 h, ex vivo | – | tissue uptake | 7.15 %ID/g |
| O=C1NC(=O)C(c2ccccc2)(c2ccccc2)N1 | GABA-A receptor alpha-1/beta-3, with gamma-2 subunit (GABRA1/GABRB3, Homo sapiens, UniProt P14867+P28472) | reversal, anesthetic-enhanced desensitization | – | concentration not given, α1β3γ2 receptor | higher is stronger | inhibition | -8% |
| CC[C@H](C)[C@@H]1NC(=O)[C@@H]2CCCN2C(=O)[C@H](CC(C)C)NC(=O)[C@H](CC(C)C)NC(=O)CNC(=O)[C@@H](NC(=O)[C@@H](NC(=O)[C@H](CC(=O)O)NC(=O)CNC(=O)[C@@H](NC(=O)[C@H](C)NC(=O)CNC(=O)[C@H](CCCCN)NC(=O)[C@H](CC(C)C)NC(=O)[C@H](CC(C)C)NC(=O)[C@H](CCCCN)NC(=O)CNC(=O)[C@@H](NC(=O)[C@@H](N)CC(C)C)C(C)C)C(C)C)C(C)C)CSSC[C@@H](C(=O)O)NC1=O | – | RNA-seq, measured: Saa3 mRNA | mouse traumatic brain injury, frontal cortex and hippocampus | dose not given | reference: TBI plus compound vs TBI | log2 fold change | -5.25 |
| O=C(Nc1cnccc1Cl)N1CCN(Cc2ccc3c(c2)OC(F)(F)O3)CC1 | PHKG2 (Homo sapiens, UniProt P15735) | kinase activity, inhibitor | – | 10 µM, human | – | inhibition | -2% |
| CN1CCN(c2nc(N)c3ccccc3n2)CC1 | HTR2A (Homo sapiens, UniProt P28223) | radioligand binding, radioligand competition binding | – | 0.1 µM, first replicate | reference: control specific binding | inhibition | 4% |
| O=C(Nc1cccnn1)N1CCC(=Cc2cccc(Oc3ccc(C(F)(F)F)cn3)c2)CC1 | ADRA2B (Homo sapiens, UniProt P18089) | binding | – | 10 µM, with: [3H]rauwolscine | – | inhibition | 13% |
| C[C@]1(CO)Cc2ncn(-c3ccc(C#N)c(Cl)c3)c2C(=O)O1 | – | – | healthy Japanese adults, plasma | 40 mg once daily, after first dose, multiple dose | – | Cmax | 2830 nM |
| CC(C)N1CCC[C@H]1CNC(=O)c1cn(C2CCCC2)c(=O)c2c1c1ccccc1n2C | Interleukin-1 receptor type 1 (Il1r1, Mus musculus, UniProt P13504) | radioligand binding | mouse | 10 µM | – | inhibition | -1% |
| COc1ccc(N2C(=O)N(c3c(C)cccc3Cl)Cc3cnc(Nc4ccc(C5CCN(C)CC5)cc4OC)nc32)nc1 | ACVR1B (Homo sapiens, UniProt P36896) | kinase activity, inhibitor | – | 0.5 µM, ALK4 | – | inhibition | -54% |
| C[C@@H](O)[C@H](NC(=O)[C@@H]1CSSC[C@H](NC(=O)[C@@H](Cc2ccccc2)NC(=O)CN2CCN(CC(=O)[O-])CCN(CC(=O)[O-])CCN(CC(=O)[O-])CC2)C(=O)N[C@@H](Cc2ccc(O)cc2)C(=O)N[C@H](Cc2c[nH]c3ccccc23)C(=O)N[C@@H](CCCCN)C(=O)N[C@@H]([C@@H](C)O)C(=O)N1)C(=O)O.[177Lu+3] | MEC1 treated with 50 µM zebularine | gamma counter | serum-free RPMI | 60 min, 37 °C | – | uptake | 1.23% |
| NCCc1c[nH]c2ccccc12 | Genome polyprotein NS3 helicase domain | DNA binding, inhibitor | hepatitis C virus | 100 µM, with: Cy5-dT15 DNA | – | inhibition | 0% |
| COc1cc2c(Oc3ccc4[nH]c(C)cc4c3F)ccnc2cc1OCC1(N)CC1 | – | – | paediatric recurrent refractory sarcoma | 12 mg | – | Vomiting incidence | 18.2% |
| COc1cc(Nc2ncc(F)c(Nc3ccc4c(n3)NC(=O)C(C)(C)O4)n2)cc(OC)c1OC | PLK2 (Homo sapiens, UniProt Q9NYY3) | KINOMEscan | – | 10 µM | – | inhibition | 100% |
| O=[N+]([O-])c1cc(O)c(O)c([N+](=O)[O-])c1 | Genome polyprotein NS3 helicase domain | DNA binding, inhibitor | hepatitis C virus | 100 µM, with: Cy5-dT15 DNA | – | inhibition | 1% |

Excerpt of the above:
| SMILES | tested on | assay | test system | setting | scale | measurement | result |
| --- | --- | --- | --- | --- | --- | --- | --- |
| CN(N=O)c1ccc(O)c(O)c1 | Genome polyprotein NS3 helicase domain | DNA binding, inhibitor | hepatitis C virus | 100 µM, with: Cy5-dT15 DNA | – | inhibition | 27% |
| COc1cc(Nc2ncc(F)c(Nc3ccc4c(n3)NC(=O)C(C)(C)O4)n2)cc(OC)c1OC | PLK2 (Homo sapiens, UniProt Q9NYY3) | KINOMEscan | – | 10 µM | – | inhibition | 100% |
| CO[C@H]1C[C@@H]2CC[C@@H](C)[C@@](O)(O2)C(=O)C(=O)N2CCCC[C@H]2C(=O)O[C@H]([C@H](C)C[C@@H]2CC[C@@H](OC(=O)NCCOCCOCCOCCOCCOCCOCCOCCOCCC(=O)N3CCc4cc(Cn5nc(-c6ccc7oc(N)nc7c6)c6c(N)ncnc65)ccc4C3)[C@H](OC)C2)C[C@@H](O)[C@H](C)/C=C(\C)[C@@H](O)[C@@H](OC)C(=O)[C@H](C)C[C@H](C)/C=C/C=C/C=C/1C | – | phase 1 dose escalation, measured: nausea | advanced solid tumour patients | intravenous, 10 mg weekly, grade ≥3 | – | TRAE incidence | 0% |
